Assay results pooled from the literature.
A part holds a random share of what one study measured.
UniProt Q13283, sequence (whole entry, looked up): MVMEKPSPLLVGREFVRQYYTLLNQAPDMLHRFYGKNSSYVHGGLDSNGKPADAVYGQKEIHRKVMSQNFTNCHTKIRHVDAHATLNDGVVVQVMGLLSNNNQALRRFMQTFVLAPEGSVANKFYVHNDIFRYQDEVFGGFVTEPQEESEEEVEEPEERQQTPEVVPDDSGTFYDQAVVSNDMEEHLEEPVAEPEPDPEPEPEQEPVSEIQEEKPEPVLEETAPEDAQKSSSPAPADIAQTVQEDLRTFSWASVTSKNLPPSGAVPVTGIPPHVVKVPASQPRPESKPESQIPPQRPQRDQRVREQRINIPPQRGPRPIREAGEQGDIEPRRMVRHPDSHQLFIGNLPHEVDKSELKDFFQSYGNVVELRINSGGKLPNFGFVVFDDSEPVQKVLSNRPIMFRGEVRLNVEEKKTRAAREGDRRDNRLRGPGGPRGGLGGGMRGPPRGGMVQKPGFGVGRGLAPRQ

Study 1
Target: Histone acetyltransferase KAT6A, winged helix 1, GST fusion (KAT6A, Homo sapiens, UniProt Q92794, residues 1-85)
Technique: protein binding microarray
Molecule type: double-stranded DNA, one strand shown
Medium: in vitro
Concentration: not given
Setting: 8-mer, flanks averaged, mean of 2 arrays, mostly near background
Relative to: not given
Direction: higher = stronger binding
Construct (chain): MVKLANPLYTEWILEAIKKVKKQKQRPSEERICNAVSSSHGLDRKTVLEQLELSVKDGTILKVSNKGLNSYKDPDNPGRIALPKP
Sequence	E-score
ACGAAATA	-0.152
AGGGATGG	-0.105
GGTTATAC	0.0445
GCTGACGA	-0.141

Study 2
Target: Sal-like protein 4, full length isoform A (SALL4, Homo sapiens, UniProt Q9UJQ4, residues 1-1053)
UniProt Q9UJQ4, sequence (whole entry, looked up): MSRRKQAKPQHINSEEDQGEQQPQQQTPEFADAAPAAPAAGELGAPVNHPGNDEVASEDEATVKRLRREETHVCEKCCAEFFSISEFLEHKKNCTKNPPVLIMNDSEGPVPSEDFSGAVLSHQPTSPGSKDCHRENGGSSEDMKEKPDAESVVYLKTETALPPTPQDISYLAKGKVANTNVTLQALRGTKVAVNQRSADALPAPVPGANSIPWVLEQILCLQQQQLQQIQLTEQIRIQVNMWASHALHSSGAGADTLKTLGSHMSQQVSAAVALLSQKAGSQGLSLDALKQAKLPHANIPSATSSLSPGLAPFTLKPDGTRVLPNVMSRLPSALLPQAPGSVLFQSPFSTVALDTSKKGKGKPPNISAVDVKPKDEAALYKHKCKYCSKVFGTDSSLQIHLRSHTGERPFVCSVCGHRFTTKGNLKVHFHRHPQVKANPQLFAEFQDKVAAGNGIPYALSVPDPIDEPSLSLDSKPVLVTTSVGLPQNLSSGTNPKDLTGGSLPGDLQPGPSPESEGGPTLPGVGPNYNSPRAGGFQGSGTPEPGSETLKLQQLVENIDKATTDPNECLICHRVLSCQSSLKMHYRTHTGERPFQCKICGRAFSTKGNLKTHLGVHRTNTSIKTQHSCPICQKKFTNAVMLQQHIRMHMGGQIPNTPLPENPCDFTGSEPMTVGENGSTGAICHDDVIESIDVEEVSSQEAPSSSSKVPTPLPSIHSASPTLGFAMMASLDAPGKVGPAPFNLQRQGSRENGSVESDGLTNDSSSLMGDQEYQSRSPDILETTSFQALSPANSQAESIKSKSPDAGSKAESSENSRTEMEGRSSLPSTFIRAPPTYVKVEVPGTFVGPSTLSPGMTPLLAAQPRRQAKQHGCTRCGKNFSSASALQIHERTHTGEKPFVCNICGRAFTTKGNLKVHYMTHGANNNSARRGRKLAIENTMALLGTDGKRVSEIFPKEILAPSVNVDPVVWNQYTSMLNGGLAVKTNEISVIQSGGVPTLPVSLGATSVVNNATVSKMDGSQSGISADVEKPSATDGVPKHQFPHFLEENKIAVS
Technique: universal PBM
Molecule type: double-stranded DNA, one strand shown
Medium: in vitro
Concentration: 600 nM
Setting: 8-mer, flanks averaged, mean of replicates
Direction: higher = stronger binding
Sequence	E-score
GGCGAGCC	-0.36
AATAAGAA	0.338
CCCGCGGG	-0.389
CCTGGTTA	-0.129

Further values, each from its own experiment
Substance	target	assay	system	conditions	how to read	quantity	result
PhoQ, residues 284 288 289 292 302 303 ALASRC	PhoP, residues 12 14 15 18 19 NIMAP (Escherichia coli, UniProt P23836)	Sort-seq, refers to: YFP reporter	E. coli	PhoQ-PhoP variant library, added: 10 µM Mg2+	relative to: high Mg2+ state, higher = stronger signaling	fold induction	1.69
GGGAGUUCUACAGUCCGACGAUCUAGCCCUGGUGGCAUGCGGGGAGGAAGAGGUGGCCUCAUGGAUCGUGGUGGUCCCGGUGGAAUGUUCAGAGGUGGCCGUGGUGGAGACAGUGGAAUUCUCGGGUGUCAAGG	Ras GTPase-activating protein-binding protein 1, RRM domain (G3BP1, Homo sapiens, UniProt Q13283)	RNA Bind-n-Seq	RNA, in vitro	1 µM, whole 134-nt RNA, ends assumed, added: 150 mM KCl	relative to: input library, higher = stronger binding	log2 enrichment	0.735

For quick reference, copied from above (study 2):
Sequence	E-score
GGCGAGCC	-0.36
CCCGCGGG	-0.389
